Experimental data pooled from the literature.
Compare with care: the assays were run in different laboratories. ± gives the spread as reported.
DRD2: D(2) dopamine receptor (DRD2, Homo sapiens, UniProt P14416)
ISOC2: Isochorismatase domain-containing protein 2 (ISOC2, Homo sapiens, UniProt Q96AB3)

The EC50 of CCn1c(-c2nc3ccc(C(=O)N4CCCC(N)C4)cc3n2C)cc2ccccc21 (stereo not shown) is reported as greater than 31.6 µM (ADORA2A (Homo sapiens, UniProt P29274); agonist, TR-FRET).
CNC(=O)c1c(C)[nH]c(C)c1S(=O)(=O)Nc1ccc(C(F)(F)F)c(Cl)c1 gave an IC50 of greater than 100 µM (DRD2).
Clc1ccc(COC(Cn2ccnc2)c2ccc(Cl)cc2Cl)c(Cl)c1 (stereo not shown) has a Ki of 9.95 µM (Alpha-1-acid glycoprotein 1, F1/S variants (ORM1, Homo sapiens, UniProt P02763); competitive inhibitor, ultrafiltration; 15 min, 37 °C, with: [3H]tamsulosin).
CCCCOc1ccc(CC(=O)NO)cc1 gave a Kd of greater than 30.2 µM (ISOC2; inhibitor, competition pulldown; SW620 and MV4-11 lysate; 1 h).
CCCCCCCCCCCCCCCCCCc1ccc(O)cc1 gave a Kb of 23700 µM (Albumin (ALB, Homo sapiens, UniProt P02768); modified Stern–Volmer; PBS; 27 °C).
N#C[C@@]12C[C@@H]1[C@@H](n1cnc3c(NC4CCCC4)nc(I)nc31)[C@H](O)[C@@H]2O gave a Kb of 0.0244 µM (Htr2c (Mus musculus, UniProt P34968); antagonist, Gq dissociation BRET; mouse receptor).
For CN1CCc2c(c3ccccc3n2Cc2ccc(C(=O)NO)cc2)C1, the Kd was greater than 30.2 µM (ISOC2; inhibitor, competition pulldown; SW620 and MV4-11 lysate; 1 h).
The Kd of C=CC(=O)N1CCN(c2nc(OC[C@@H]3CCCN3C)nc3c(F)c(-c4nc(N)cc(C)c4C(F)(F)F)c(Cl)cc23)[C@@H](C)C1 is reported as 0.857 ± 0.094 µM (GTPase KRas, GDP-bound (KRAS, Homo sapiens, UniProt P01116, Q61H); binding, surface plasmon resonance).
CC(C)[C@H](C)CC[C@@H](C)[C@H]1CC[C@H]2[C@@H]3CC=C4C[C@@H](O)CC[C@]4(C)[C@H]3CC[C@]12C has a Kd of 1.5 ± 3.6 µM (CYP125 ancestral reconstruction; UV-Vis difference spectra; Morrison fit, fitted enzyme).
With Cc1[nH]c(C)c(S(=O)(=O)Nc2ccc(C(F)(F)F)c(Cl)c2)c1C(=O)NCC(F)F the IC50 was greater than 100 µM (DRD2).
The Kd of CN(C)Cc1c(C(=O)NCCOc2ccc(C(=O)NO)cc2)oc2ccccc12 is reported as greater than 30.2 µM (ISOC2; inhibitor, competition pulldown; SW620 and MV4-11 lysate; 1 h).
Cc1[nH]c(C)c(S(=O)(=O)Nc2cc(Cl)cc(Cl)c2Cl)c1C(=O)N1CCC(F)(F)C1 gave an IC50 of greater than 100 µM (DRD2).
CN1CCN(c2ccc(Nc3ncc4cc(C#N)c(=O)n(C5CCCC5)c4n3)cc2)CC1 gave an IC50 of 0.259 µM (Cyclin-dependent kinase 5, with p25 (CDK5, Homo sapiens, UniProt Q00535)).
